# Experimental data from different studies.
# Each line is one published result; not all experiments were run side by side. Values joined by “and” are separate records of one study, mostly repeats; a detail may differ. ± marks the error that the study gave.
Structure (SMILES),assay,test system,setting,scale,endpoint,result
O=C(Nc1cnccc1-c1ccc([18F])cc1)c1ccnc(NC(=O)C2CC2)c1,ex vivo gamma counting,"FVB/NJ mice, both sexes, cecum","intravenous, 120 min",,mean SUV,4.82
CC(C)n1ncc2c(C(=O)NC[C@@H](C)N)cc(C3CC3)nc21,,"female BALB/c mouse, plasma","intraperitoneal, 30 mg/kg, 8 h",,concentration,247 ng/mL
CC(C)(C)C(=O)Nc1ccccc1,,water,24 h,,logP,2.11
CN(Cc1ccccc1)C(=O)CN1CCN(CC(=O)[O-])CCN(CC(=O)[O-])CC1.[18F-].[Sc+3],,"mouse, muscle","intravenous, 1 h",,tracer uptake,0.11 %ID/g
CC[C@H](C)[C@H](NC(=O)[C@@H](NC(=O)[C@H](CCCCN)NC(=O)[C@@H](NC(=O)[C@@H]1CCCN1[C@@H]1CN(C(=O)[C@@H](NC(=O)[C@@H](NC(=O)[C@@H](NC(=O)[C@@H](NC(=O)[C@@H](NC(=O)[C@@H](N)CCCCN)C(C)C)C(C)C)C(C)C)[C@@H](C)CC)[C@@H](C)O)CC[C@H]1NS(=O)(=O)c1ccc(C)cc1)[C@@H](C)O)C(C)C)C(=O)N[C@@H](CC(C)C)C(=O)N[C@@H](Cc1c[nH]cn1)C(N)=O,circular dichroism,methanol,"125 µM, 20 °C",,random coil content,17%
O=C(Nc1cnccc1-c1ccc([18F])nc1)c1ccnc(NC(=O)C2CC2)c1,PET imaging,"normal FVB/NJ mouse, both sexes, brain","intravenous, first 5 min post-injection",,SUV,0.2 ± 0.09
COC1C=COC2(C)Oc3c(C)c(O)c4c(c3C2=O)C2=NC3(CCN(CC(C)C)CC3)NC2=C(NC(=O)C(C)=CC=CC(C)C(O)C(C)C(O)C(C)C(OC(=O)c2cccnc2)C1C)C4=O (centres unmarked),,"CD-1 mouse female, plasma","intravenous, 5 mg/kg",,elimination rate constant,2.86e-05 s⁻¹
CC(=O)N([O-])CCCCCNC(=O)CCC(=O)N([O-])CCCCCNC(=O)CCC(=O)N([O-])CCCCCN.[89Zr+4],radio-TLC,aqueous buffer,"1 d, pH 7.2, 37 °C, 89Zr-labelled complex, together with: CoCl2 10-fold excess",,intact complex,97.1 ± 1.3%
CCc1cnc(NC(=O)c2cc(S(=O)(=O)N3CCOCC3)ccc2N(C)C2CCCC2)s1,,"mouse, blood","10 mg/kg, 3 doses",,Lymphocytes absolute count,4740 µL⁻¹
O=C([O-])CN1CCN(CC(=O)[O-])CCN(C(CO)C(O)CO)CCN(CC(=O)[O-])CC1.[Dy+3] (centres unmarked),,"female cynomolgus monkey, plasma","intravenous, dose not given",,distribution half-life,1.97 min
N#C[C@@H]1CCCN1C(=O)CNC(=O)c1ccnc2ccc(OCCCN3CCN(C(=O)CCc4ccc5c(c4)CN4CCN(Cc6cc(CCC(=O)O)ccc6O)CC(=O)[O][Al-]([18F])([O]C(=O)C4)[O]5)CC3)cc12 (some centres unmarked),radio-TLC,"CD-1 mice, plasma","intravenous, 120 min post-injection",,radiochemical purity,57.3 ± 6.4%
Cc1cc(-c2ccc(C(=O)[C@@H]3CCCC[C@H]3C(=O)Nc3cnn4c3C(=O)NCC4)cc2)[nH]n1,,"human, faeces","oral, 200 mg, 0-120 h",reference: dose,cumulative radioactivity recovery,73.4% and 84.8% and 80.8% and 65.2%
O=C([O-])CN1CCN(CC(=O)[O-])CCN(CC(=O)[O-])CC1.[44Sc+3],,"mouse, blood","intravenous, 1 h",,tracer uptake,0.28 %ID/g
C=C(NC(=O)c1csc(-c2nc3c(cc2O)-c2nc(cs2)C(=O)NC(C(C)O)C(=O)NC(=C(C)OC)c2nc(cs2)C(=O)NC2c4nc(cs4)C(=O)NC(COC(=O)c4c5c6c(cccc6n4O)COC(=O)C(OC4CC(C)(O)C(N(C)C)C(C)O4)C2OC5)c2nc-3cs2)n1)C(N)=O (centres unmarked),,"ICR mice, Streptococcus pneumoniae ATCC 49169 infected, immunocompromised, blood","intravenous, 16 mg/kg three times daily",,AUC(0-t),1.01 µM·h
CN(Cc1ccccc1)C(=O)CN1CCN(CC(=O)[O-])CCN(Cc2cccc(C(=O)[O-])n2)CC1.[177Lu+3],,"mouse, blood","intravenous, 1 h",,tracer uptake,0.68 %ID/g
CCCCN1C(=O)c2cccc3c(NCCCN4CCOCC4)ccc(c23)C1=O,,ethyl acetate,,,fluorescence lifetime,9.6 ns
CC(C)(O)c1ncc([S@](N)(=O)=NC(=O)Nc2c3c(cc4c2CCC4)CCC3)s1,item: Gastrointestinal disorders,healthy human volunteers,"oral, 200 mg once daily, 14 days, spray-dried dispersion",,subjects with adverse events,29%
COc1ccc(Nc2nc(Nc3ccc(OCCOCCOCC[18F])cc3)ncc2Br)cc1,,"ICR mice, S180 tumour","intravenous, 370 kBq, 15 min",reference: tumour over blood,uptake ratio,0.67
C/C(N)=N/C(=N\S(=O)(=O)c1ccc(C(F)(F)F)cc1)N1C[C@H](c2ccccc2)C(c2ccc(Cl)cc2)=N1,,"C57BL/6 mouse, heart","intravenous, 10 mg/kg",,half-life,2.7 h
CN(Cc1ccccc1)C(=O)CN1CCN(CC(=O)[O-])CCN(CC(=O)N(C)Cc2ccccc2)CC1.[18F-].[Sc+3],,"mouse, blood","intravenous, 1 h",,tracer uptake,0.11 %ID/g
COc1cccc(OC)c1-c1cc(C(=O)NC2(C(=O)O)C3CC4CC(C3)CC2C4)nn1-c1ccc(C(=O)N(C)CCCN(C)C(=O)[C@H](CCCCNC(=O)[C@H](CC(C)C)NC(=O)C2OC2C(=O)O)NC(=O)CN2CCN(CC(=O)[O-])CCN(CC(=O)[O-])CCN(CC(=O)[O-])CC2)cc1C(C)C.[177Lu+3] (mixture of isomers),,"mouse, HT-29 xenograft","4 h post injection, biodistribution",reference: tumour over muscle uptake,tumour-to-muscle ratio,13.2
CC(C)OCCOCc1ccc(OCC(O)CN(N=O)C(C)C)cc1 (centres unmarked),"mutation spectrum, duplex sequencing","NMRI mouse, liver",concentration not given,,T>G mutation fraction,increased
C=CC(=O)Nc1cc(Nc2nccc(-c3c[nH]c4ccccc34)n2)c(OC)cc1N(C)CCN(C)C,storage stability,human plasma,"5 h, -80 °C, medium QC level",,recovery,91.3%
O=C1CCC(N2Cc3cc(C(=O)O)c(F)cc3C2=O)C(=O)N1 (centres unmarked),,"male CD-1 mouse, plasma","intravenous, 1 mg/kg, 30 min",,concentration,136 ng/mL
CC[C@H](C)/C=C/C=C/C=C/C(O)=C/C(=O)C(Cl)(Cl)Cl,,"C57BL/6 mice, female, plasma","oral, 25 mg/kg",,MRT,5.7 h
CN([O-])C(=O)CN1CCNCCN(CC(=O)N(C)[O-])CC1.[89Zr+4],radio-TLC,human serum,"2 days, run 1",,intact complex,100%
O=C([O-])CN1CCN(CC(=O)[O-])CCN(Cc2cccc(C(=O)[O-])n2)CC1.[177Lu+3],,"mouse, muscle","intravenous, 1 h",,tracer uptake,0.18 %ID/g
N#C[C@@H]1CC(F)(F)CN1C(=O)CNC(=O)c1ccnc2ccc(OCCCN3CCN(C(=O)CCc4ccc(O)c(CN5CCN6CC(=O)[O][Al-]([18F])([O]C(=O)C5)[O]c5ccc(CCC(=O)N7CCN(CCCOc8ccc9nccc(C(=O)NCC(=O)N%10CC(F)(F)C[C@H]%10C#N)c9c8)CC7)cc5C6)c4)CC3)cc12 (some centres unmarked),radio-TLC,"CD-1 mice, plasma","intravenous, 120 min post-injection",,radiochemical purity,61.3 ± 4.7%
CC[C@H](C)[C@@H]1NC(=O)[C@H](Cc2ccc(O)cc2)NC(=O)CCCSC[C@@H](C(=O)N(CC(=O)N[C@@H](CC(C)C)C(=O)NCC(N)=O)Cc2ccc(F)cc2)NC(=O)[C@H](CC(N)=O)NC(=O)[C@H](CCC(N)=O)NC1=O,,human,"intranasal, 15 µg single dose",,severe adverse events,0%
COc1cccc(OC)c1-c1cc(C(=O)NC2(C(=O)O)C3CC4CC(C3)CC2C4)nn1-c1ccc(C(=O)N(C)CCOCCOCCN(C)C(=O)[C@H](CCCCNC(=O)[C@H](CC(C)C)NC(=O)C2OC2C(=O)O)NC(=O)CN2CCN(CC(=O)[O-])CCN(CC(=O)[O-])CCN(CC(=O)[O-])CC2)cc1C(C)C.[177Lu+3] (mixture of isomers),,"mouse, HT-29 xenograft, kidney",168 h post injection,,tissue uptake,2 %ID/g
N=C(N)NCCC[C@@H]1NC(=O)[C@H](CO)NC(=O)[C@@H](NC(=O)[C@H](CO)NC(=O)[C@H](CO)NC(=O)[C@H](Cc2c[nH]c3ccccc23)NC(=O)CNC(=O)[C@H](CO)NC(=O)[C@@H](N)Cc2c[nH]c3ccccc23)CSSC[C@@H](C(=O)NCC(=O)O)NC(=O)[C@H](CO)NC1=O,,"patients, plasma","intravenous, 10 mg/kg, thrice weekly, median",,Ctrough,0 ng/mL
C=CC(=O)Nc1cc(Nc2nccc(-c3cn(C)c4ccccc34)n2)c(OC)cc1N(C)CCNC,storage stability,human dried blood spot,"10 d, -80 °C, LQC level",,recovery,103%
C[N+](C)(CCOCCOCCOCCNC(=S)Nc1ccc(C[C@H]2CN(CC(=O)[O-])CCN(CC(=O)[O-])CCN2CC(=O)[O-])cc1)C[c-]1cccc1.[64Cu+2].[Fe+2].c1cc[cH-]c1,,"nude mice, BxPC-3 xenograft, large intestine","8 h, pretargeted, 72 h lag time",,large intestine uptake,5.2 ± 0.8 %ID/g
COc1cccc(OC)c1-c1cc(C(=O)NC2(C(=O)O)C3CC4CC(C3)CC2C4)nn1-c1ccc(C(=O)N(C)CCCN(C)CCCN(C)C(=O)[C@H](CCCCNC(=O)[C@H](CC(C)C)NC(=O)C2OC2C(=O)O)NC(=O)CN2CCN(CC(=O)[O-])CCN(CC(=O)[O-])CCN(CC(=O)[O-])CC2)cc1C(C)C.[177Lu+3] (mixture of isomers),,"mouse, HT-29 xenograft","4 h post injection, biodistribution",reference: tumour over muscle uptake,tumour-to-muscle ratio,9.55
Cc1nn(-c2nc3c(F)cc(F)cc3s2)c(O)c1C(c1ccc(C(F)(F)F)cc1)c1c(C)nn(-c2nc3c(F)cc(F)cc3s2)c1O,,"ICR mouse, plasma","intraperitoneal, 10 mg/kg",,CL/F observed,5.51 mL/min/kg and 6.05 mL/min/kg and 5.25 mL/min/kg
Cc1ccc(OCC(=O)N(Cc2cccs2)c2ccn[nH]2)cc1,,human plasma,"750 ng/mL, 0.25 h, 37 °C, unit not given",reference: time zero,remaining compound,113
COc1ccc2c(c1)CCn1c[n+]3c(c1-2)-c1ccc(OC)cc1CC3,,"female NSG mice, blood","6 mg/kg, day 14, 5 days per week",,red cell distribution width,17.6 ± 4.1%
CCC(CC)CNC(=N)NC(=N)NCCCCCCNC(=N)NC(=N)NCC(CC)CC,metabolic stability,"monkey, liver microsomes",2 µM,,half-life,1.41 h

# Excerpt of the above:
Structure (SMILES),assay,test system,setting,scale,endpoint,result
Cc1ccc(OCC(=O)N(Cc2cccs2)c2ccn[nH]2)cc1,,human plasma,"750 ng/mL, 0.25 h, 37 °C, unit not given",reference: time zero,remaining compound,113
COc1ccc2c(c1)CCn1c[n+]3c(c1-2)-c1ccc(OC)cc1CC3,,"female NSG mice, blood","6 mg/kg, day 14, 5 days per week",,red cell distribution width,17.6 ± 4.1%
CCC(CC)CNC(=N)NC(=N)NCCCCCCNC(=N)NC(=N)NCC(CC)CC,metabolic stability,"monkey, liver microsomes",2 µM,,half-life,1.41 h
